# Measurements gathered from unrelated publications.
# Parts stem from different laboratories: compare values within a part only. Changes are numbered by the printed parent chain.

# Study 1
# Target: Histone acetyltransferase KAT6A, winged helix 1, GST fusion (KAT6A, Homo sapiens, UniProt Q92794, residues 1-85)
# Technique: protein binding microarray
# Molecule type: double-stranded DNA, one strand shown
# Medium: in vitro
# Concentration: not given
# Notes: 8-mer, flanks averaged, mean of 2 arrays, mostly near background
# Relative to: not given
# Reading: higher = stronger binding
# Construct (chain): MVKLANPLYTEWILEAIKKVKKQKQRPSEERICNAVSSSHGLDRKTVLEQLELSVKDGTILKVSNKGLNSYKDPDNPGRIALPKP
Strand,E-score
AACAAAAG,-0.033
AGTAAGAT,-0.0548
ATTATTCA,-0.181
AAGGCATT,-0.218
CCCCTGTC,-0.141
GCTTGACC,0.0789
CTGCTCTC,-0.175
ACGGGCCA,0.152
ATCCATCG,-0.0304
GTCACTAA,-0.225
GGCCAGCC,-0.121
ACACTTGA,-0.208
ACTTGAAG,-0.214
ATAGCAAA,-0.234
GGAGGTAA,-0.237
ATAACACA,-0.0965
AGCATACA,-0.159
CCGATGAC,0.134
CGCTACAG,0.069
CGATTTGA,-0.157
CCAGGAGC,-0.0627
AGTATCAG,-0.046
CCAACTCA,-0.251
AAATGCCC,-0.13
GTCTAGAA,0.0191

# Study 2
# Target: RNA binding protein fox-1 homolog 2, RRM domain, GST-SBP tag (RBFOX2, Homo sapiens, UniProt O43251-10, residues 100-194)
# Technique: RNA Bind-n-Seq
# Molecule type: RNA
# Medium: in vitro
# Concentration: 365 nM
# Notes: natural RNA segment, single round, ends assumed
# Relative to: no-protein control
# Reading: higher = stronger binding
# Residues (chain): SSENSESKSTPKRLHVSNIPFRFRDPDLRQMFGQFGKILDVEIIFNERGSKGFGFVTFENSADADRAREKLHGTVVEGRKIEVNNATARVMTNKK
Strand,RBNS enrichment (R)
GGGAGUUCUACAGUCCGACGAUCGGGGACAGAAAAUACUCAUCUGUCCCCAGCACAGCCCCCACCCCACCCCCCAUAGCUGCUGAGACUGGCUCACAGCCCAAGGGGGCUGGGCUGGAGGGGAAGGCUGGGACUGGAAUUCUCGGGUGCCAA,0.405
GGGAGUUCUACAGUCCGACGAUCGUUACCUGAGUGUGACACAGGCCCUGGGGUGUGCGUGUUUCUCUAACUGUCUACACGUGCACAUAGGCAGACUUUCUCAUAGAAUGUUCUUGAAAGGUGAUUGGCAAAGUUGGAAUUCUCGGGUGCCAA,0.741
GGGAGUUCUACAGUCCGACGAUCAGGAAGAUCUGGCUCAGUCUACUAUGGGCAGGGCCCCCCACCAAGCUGAGCCGAAUGGAGACAGCUGAGCUGAGGCCUGACUUUUUCAAUAAAACAUUGUGUAGUUCUGGUGGAAUUCUCGGGUGCCAA,0.574
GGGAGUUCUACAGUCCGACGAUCUUGGCAACAGUCUACCUUAUUUAAAGCUUCUACUGGGAUAAACCUCAAUUCCUUUAUUCAGGAAAGGAUACUUUAUUGCAUUAUUGUUGCAGAAGCAUAGAUUUAAUUGCUGGAAUUCUCGGGUGCCAA,0.392
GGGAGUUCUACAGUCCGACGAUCUCUAUCCAUAUGCUAUCGAGUAAUUAUAGAAGCAAUUAACACUCACUGUUCUUGCCUCUGGUGAGAUAUUUUUCUCCUGUAGUUAACAGAUAUUGGGUGGGGGGAGGGGAUGGAAUUCUCGGGUGCCAA,0.618
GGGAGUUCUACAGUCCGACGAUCGAAGCUAAUGCCGGCAUGUCCCUUGGGUGAGCUCUACAUGGUGUUAUUCAGUCUGGUUCUUGGCUCCCCACUACUGUUUCUCUCAGCCUCUCAGAGCCUGAAACUUACCUUGGAAUUCUCGGGUGCCAA,0.857
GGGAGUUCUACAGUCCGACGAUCGCUAAGUUAAUCAGAAAUUGCGAGCAUGCACAGUGGUAUGCCAGCCUGGGUGAUGCUUUCCUAGGAGAGCCGGUAUUUGCUUGUAAGGGAAAGAAUGGUAUUGUAGAAAAUGGAAUUCUCGGGUGCCAA,4.14
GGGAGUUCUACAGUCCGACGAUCCUCAGCAGAGCACUGACACACACAGGAGACUUUUCUCGAUUAACCGCCCUGCCCGAGCAGCGUUCCUUUGGAGGGAGGCUGCAGAUCAUCCAGGGCUGCCCCUUCCGUUAUGGAAUUCUCGGGUGCCAA,0.324
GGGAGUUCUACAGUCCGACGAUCUAAUAAUAGUACCUAAGAGUAUUGAUGGUUUUCAUUUUUCAACCAGCACUCUAAUGCACAGCUGCUGACAAUAAAAGCCCCAACUCUUAACGGAGAUCAGUGGGAGUUACUGGAAUUCUCGGGUGCCAA,0.661
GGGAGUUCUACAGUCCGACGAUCUCUUGUCCUUUCCCCUUCAGAUGGAGACUUCAUUAUGUUAAUGAACAAGAUAUGAAGAAAAUGGCACUCAUUGUGGCCUUGUUGAAUUAUGUUGUGUAUGUUUUAACAUCUGGAAUUCUCGGGUGCCAA,0.841
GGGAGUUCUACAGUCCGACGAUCCCAAAGACACAUUUCUCAGAACGUAGCCCCAUCAUGAAGUGACGUGACUACCAGAGAUUUCUGGAAAAGCACUCCCAAAAGUAAUGAGAUGUGUAUGGCAAUGUUAACUGUGGAAUUCUCGGGUGCCAA,0.405
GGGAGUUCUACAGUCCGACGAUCCUGAAAAGCAUGGUGCUGGUAACAGUUCAACAAUCCGUGGCUGCUCAUUCUUGCCGACUCCUCCCCCUCUGAAGCAGGUUAGCAUUGAAGGUGGUAUGGAAGCCUGCAUGUGGAAUUCUCGGGUGCCAA,2.03

# Study 3
# Target: FOS, bZIP domain (human)
# Technique: DHFR protein complementation
# Medium: yeast
# Notes: single substitutions, most at no-binding floor
# Relative to: wild-type JUN-FOS pair
# Reading: higher = stronger binding
# Starting sequence: JUN, bZIP domain (human); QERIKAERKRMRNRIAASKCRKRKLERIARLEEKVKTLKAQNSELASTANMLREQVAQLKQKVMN; partner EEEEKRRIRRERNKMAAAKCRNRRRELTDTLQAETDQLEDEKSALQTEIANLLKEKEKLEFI
Change,binding fitness
Q55N,-0.388 natural log
A40S,-0.0878 natural log
S43N,-0.0406 natural log
L31N,-0.663 natural log
M51G,-0.155 natural log
E54K,-0.168 natural log
V56T,-1.16 natural log
A46V,-0.163 natural log
A57M,-0.12 natural log
K39M,-0.678 natural log
T48N,-0.352 natural log
L38T,-1.16 natural log
K34L,-0.153 natural log
L38W,-1.33 natural log
V35F,-0.524 natural log
A40T,0.0165 natural log
L31I,-0.458 natural log
A57E,0.0224 natural log
E32A,0.304 natural log
Q55A,-0.00944 natural log
A49Q,-0.813 natural log
V56E,-1.15 natural log
R30F,0.0655 natural log
M51L,0.0185 natural log
K39P,-1.31 natural log

# Study 4
# Target: Interferon regulatory factor 3, full length, phosphomimetic (IRF3, Homo sapiens, UniProt Q14653, residues 1-427, S386D/S396D/S398D/S402D/T404D/S405D)
# Technique: protein-binding microarray
# Molecule type: double-stranded DNA, one strand shown
# Medium: in vitro
# Concentration: 2540 nM top
# Notes: 60-bp whole probe
# Added: salmon DNA 0.4 mg/ml
# Relative to: random background probes
# Reading: higher = stronger binding
# All sequences stand within: GCCTAGCAC … GTCTTGATTCGCTTGACGCTGCTG
# Residues (chain): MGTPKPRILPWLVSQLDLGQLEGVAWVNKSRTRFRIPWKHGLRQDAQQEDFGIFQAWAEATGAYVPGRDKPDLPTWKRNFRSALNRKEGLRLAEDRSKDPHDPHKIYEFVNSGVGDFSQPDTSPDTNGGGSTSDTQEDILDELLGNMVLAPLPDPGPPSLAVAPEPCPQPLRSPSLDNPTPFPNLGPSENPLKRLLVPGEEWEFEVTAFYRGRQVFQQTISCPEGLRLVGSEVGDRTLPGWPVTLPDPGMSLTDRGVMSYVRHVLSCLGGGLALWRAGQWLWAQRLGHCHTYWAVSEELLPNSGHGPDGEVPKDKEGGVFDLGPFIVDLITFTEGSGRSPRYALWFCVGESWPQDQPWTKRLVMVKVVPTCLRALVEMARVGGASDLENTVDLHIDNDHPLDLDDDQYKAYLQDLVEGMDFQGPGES
Strand,fitted relative affinity [z-score]
TCCATTTTGGTTTTCATTATGTGCTAG,3.76
TTAGAACTGAGTATCGTTTAGTGCTAG,0.436
TTAGGTATCGGGTTTCGGTCAGTGCTA,3.34
TCAGTATTTTTTCTGAAACTGTGCTAG,0.889
CTATTTTTCACCTGCACTCAGTGCTAG,1.33
ACAGCAAGAGCTCAACGGGGGTGCTAG,-0.383
TTAGCTTTCCTTATCCTTTAGTGCTAG,5.25
GATGATATCAGTATCGAGACGTGCTAG,0.998
TTAGATATCAGTCTCTATTAGTGCTAG,1.25
GACGGTATCGGGTTTCGAGACGTGCTA,2.81
TTAGATTTCGGGTAACGATTAGTGCTA,0.822
GAGGGTTTCGGTTCCGGGACGTGCTAG,8.98
TTATGTTCCGGTTTCGGTTAGTGCTAG,7.2
CTGTGGGAGGCCCGCGGGAGGTGCTAG,-1.3
GACGGGATCGGGACTGGGGACGTGCTA,-0.247
TTAGGACTGGACACTGGGTTCGTGCTA,-0.863
TCAGGTGTCTTTTGTGGAACTGTGCTA,0.0464
GACGGTTCCGGTTTCGGGGCGTGCTAG,5.83
GACGGACTGAACTTTCGGGACGTGCTA,0.43
TCAACTTTCTGAATGCCACTGTGCTAG,2.21
TCAACTTCTGTTTTTGCACTGTGCTAG,0.55
TCAGGTCTCGGTATCGGTTAGTGCTAG,2.8
TTAGATTTCAGACAGGATTAGTGCTAG,0.23
TTAGGTACCGACACTGGGTTAGTGCTA,0.101
GACGGTTTCGGGTATTGGGACGTGCTA,4.34

# Excerpt of the above (study 2):
Strand,RBNS enrichment (R)
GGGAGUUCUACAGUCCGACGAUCGUUACCUGAGUGUGACACAGGCCCUGGGGUGUGCGUGUUUCUCUAACUGUCUACACGUGCACAUAGGCAGACUUUCUCAUAGAAUGUUCUUGAAAGGUGAUUGGCAAAGUUGGAAUUCUCGGGUGCCAA,0.741
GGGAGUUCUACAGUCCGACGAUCAGGAAGAUCUGGCUCAGUCUACUAUGGGCAGGGCCCCCCACCAAGCUGAGCCGAAUGGAGACAGCUGAGCUGAGGCCUGACUUUUUCAAUAAAACAUUGUGUAGUUCUGGUGGAAUUCUCGGGUGCCAA,0.574
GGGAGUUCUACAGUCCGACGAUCUUGGCAACAGUCUACCUUAUUUAAAGCUUCUACUGGGAUAAACCUCAAUUCCUUUAUUCAGGAAAGGAUACUUUAUUGCAUUAUUGUUGCAGAAGCAUAGAUUUAAUUGCUGGAAUUCUCGGGUGCCAA,0.392
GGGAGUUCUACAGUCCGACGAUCUCUAUCCAUAUGCUAUCGAGUAAUUAUAGAAGCAAUUAACACUCACUGUUCUUGCCUCUGGUGAGAUAUUUUUCUCCUGUAGUUAACAGAUAUUGGGUGGGGGGAGGGGAUGGAAUUCUCGGGUGCCAA,0.618
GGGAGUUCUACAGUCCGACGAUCGAAGCUAAUGCCGGCAUGUCCCUUGGGUGAGCUCUACAUGGUGUUAUUCAGUCUGGUUCUUGGCUCCCCACUACUGUUUCUCUCAGCCUCUCAGAGCCUGAAACUUACCUUGGAAUUCUCGGGUGCCAA,0.857
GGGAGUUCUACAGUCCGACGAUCGCUAAGUUAAUCAGAAAUUGCGAGCAUGCACAGUGGUAUGCCAGCCUGGGUGAUGCUUUCCUAGGAGAGCCGGUAUUUGCUUGUAAGGGAAAGAAUGGUAUUGUAGAAAAUGGAAUUCUCGGGUGCCAA,4.14
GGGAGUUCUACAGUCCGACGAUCCUCAGCAGAGCACUGACACACACAGGAGACUUUUCUCGAUUAACCGCCCUGCCCGAGCAGCGUUCCUUUGGAGGGAGGCUGCAGAUCAUCCAGGGCUGCCCCUUCCGUUAUGGAAUUCUCGGGUGCCAA,0.324
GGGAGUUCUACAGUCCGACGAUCUAAUAAUAGUACCUAAGAGUAUUGAUGGUUUUCAUUUUUCAACCAGCACUCUAAUGCACAGCUGCUGACAAUAAAAGCCCCAACUCUUAACGGAGAUCAGUGGGAGUUACUGGAAUUCUCGGGUGCCAA,0.661
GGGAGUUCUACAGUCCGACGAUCUCUUGUCCUUUCCCCUUCAGAUGGAGACUUCAUUAUGUUAAUGAACAAGAUAUGAAGAAAAUGGCACUCAUUGUGGCCUUGUUGAAUUAUGUUGUGUAUGUUUUAACAUCUGGAAUUCUCGGGUGCCAA,0.841
